Published values gathered from unrelated publications.
Each numbered part is a random draw from the data of one study; scales do not carry over between parts. “And” joins repeats or separate records; there may be more than shown.
Sequence of UniProt Q14012 (whole entry, looked up): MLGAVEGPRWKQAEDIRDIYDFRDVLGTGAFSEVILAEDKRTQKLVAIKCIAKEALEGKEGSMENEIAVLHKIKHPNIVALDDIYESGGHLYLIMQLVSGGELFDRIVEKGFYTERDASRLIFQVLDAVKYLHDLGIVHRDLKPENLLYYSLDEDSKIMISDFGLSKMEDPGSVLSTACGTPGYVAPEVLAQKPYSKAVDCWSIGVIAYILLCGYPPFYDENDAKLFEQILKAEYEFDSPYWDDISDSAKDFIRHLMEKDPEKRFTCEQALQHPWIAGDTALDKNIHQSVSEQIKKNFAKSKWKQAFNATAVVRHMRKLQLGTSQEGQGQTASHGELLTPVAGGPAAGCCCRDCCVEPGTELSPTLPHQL
Sequence of UniProt Q9HBY8 (whole entry, looked up): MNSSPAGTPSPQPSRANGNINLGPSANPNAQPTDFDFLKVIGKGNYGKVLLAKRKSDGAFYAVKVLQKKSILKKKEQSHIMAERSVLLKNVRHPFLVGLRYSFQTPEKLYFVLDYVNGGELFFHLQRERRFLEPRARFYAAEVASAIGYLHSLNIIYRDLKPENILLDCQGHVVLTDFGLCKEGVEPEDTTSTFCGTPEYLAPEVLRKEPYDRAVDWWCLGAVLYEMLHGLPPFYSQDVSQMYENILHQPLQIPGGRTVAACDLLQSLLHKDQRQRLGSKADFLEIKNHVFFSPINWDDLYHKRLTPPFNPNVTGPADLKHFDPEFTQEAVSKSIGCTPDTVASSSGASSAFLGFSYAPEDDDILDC
Sequence of UniProt P23458 (whole entry, looked up): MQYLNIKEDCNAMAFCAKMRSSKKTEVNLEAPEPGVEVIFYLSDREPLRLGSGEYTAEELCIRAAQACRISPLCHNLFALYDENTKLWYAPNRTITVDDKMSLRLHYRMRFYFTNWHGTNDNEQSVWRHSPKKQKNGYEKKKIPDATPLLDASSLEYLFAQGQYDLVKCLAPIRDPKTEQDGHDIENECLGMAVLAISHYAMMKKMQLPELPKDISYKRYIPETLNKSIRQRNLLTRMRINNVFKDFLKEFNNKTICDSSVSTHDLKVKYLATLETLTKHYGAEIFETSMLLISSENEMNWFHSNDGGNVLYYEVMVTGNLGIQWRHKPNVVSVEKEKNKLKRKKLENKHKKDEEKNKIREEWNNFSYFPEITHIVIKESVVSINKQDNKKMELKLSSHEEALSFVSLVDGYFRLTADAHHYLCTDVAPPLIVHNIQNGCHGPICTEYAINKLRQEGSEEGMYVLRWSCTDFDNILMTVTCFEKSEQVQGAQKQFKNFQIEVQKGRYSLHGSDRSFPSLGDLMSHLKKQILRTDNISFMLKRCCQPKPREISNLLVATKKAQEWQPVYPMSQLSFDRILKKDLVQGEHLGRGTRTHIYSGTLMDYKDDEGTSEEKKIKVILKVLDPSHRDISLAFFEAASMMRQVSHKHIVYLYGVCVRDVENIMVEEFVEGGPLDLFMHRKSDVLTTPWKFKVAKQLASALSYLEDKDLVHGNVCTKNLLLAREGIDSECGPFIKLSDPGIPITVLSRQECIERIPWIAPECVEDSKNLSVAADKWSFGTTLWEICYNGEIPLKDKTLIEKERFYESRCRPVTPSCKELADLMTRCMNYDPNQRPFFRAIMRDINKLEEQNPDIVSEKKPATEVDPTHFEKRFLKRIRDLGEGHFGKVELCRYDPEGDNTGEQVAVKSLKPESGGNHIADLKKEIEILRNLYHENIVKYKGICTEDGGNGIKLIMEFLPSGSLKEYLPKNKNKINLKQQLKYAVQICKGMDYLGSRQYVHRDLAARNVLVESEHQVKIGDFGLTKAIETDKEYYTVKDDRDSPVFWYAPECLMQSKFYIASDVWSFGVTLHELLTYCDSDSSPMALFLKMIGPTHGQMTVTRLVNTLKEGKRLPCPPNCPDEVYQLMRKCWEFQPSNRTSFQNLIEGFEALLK
Sequence of UniProt Q9NYL2 (whole entry, looked up): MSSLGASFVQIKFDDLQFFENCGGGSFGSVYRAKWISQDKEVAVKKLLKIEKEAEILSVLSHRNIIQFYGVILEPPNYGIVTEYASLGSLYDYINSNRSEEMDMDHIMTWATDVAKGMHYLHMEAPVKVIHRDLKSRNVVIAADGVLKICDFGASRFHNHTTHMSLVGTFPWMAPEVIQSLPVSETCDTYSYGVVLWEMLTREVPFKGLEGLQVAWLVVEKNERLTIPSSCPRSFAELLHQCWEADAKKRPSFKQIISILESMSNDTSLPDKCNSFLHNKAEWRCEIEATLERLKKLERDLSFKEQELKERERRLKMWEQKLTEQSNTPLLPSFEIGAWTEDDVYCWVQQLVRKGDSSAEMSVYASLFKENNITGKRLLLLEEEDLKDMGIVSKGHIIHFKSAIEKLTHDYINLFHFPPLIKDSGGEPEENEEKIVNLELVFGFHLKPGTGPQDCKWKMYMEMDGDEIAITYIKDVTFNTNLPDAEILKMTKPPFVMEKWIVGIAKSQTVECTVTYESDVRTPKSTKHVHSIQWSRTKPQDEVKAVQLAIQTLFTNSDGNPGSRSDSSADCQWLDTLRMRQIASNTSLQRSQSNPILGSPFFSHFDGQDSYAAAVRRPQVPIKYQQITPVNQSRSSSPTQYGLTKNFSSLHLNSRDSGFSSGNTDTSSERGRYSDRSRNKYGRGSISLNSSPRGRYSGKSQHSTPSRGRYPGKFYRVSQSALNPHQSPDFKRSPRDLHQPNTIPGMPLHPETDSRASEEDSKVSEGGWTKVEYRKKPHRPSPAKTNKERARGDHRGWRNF
Sequence of UniProt Q9H0K1 (whole entry, looked up): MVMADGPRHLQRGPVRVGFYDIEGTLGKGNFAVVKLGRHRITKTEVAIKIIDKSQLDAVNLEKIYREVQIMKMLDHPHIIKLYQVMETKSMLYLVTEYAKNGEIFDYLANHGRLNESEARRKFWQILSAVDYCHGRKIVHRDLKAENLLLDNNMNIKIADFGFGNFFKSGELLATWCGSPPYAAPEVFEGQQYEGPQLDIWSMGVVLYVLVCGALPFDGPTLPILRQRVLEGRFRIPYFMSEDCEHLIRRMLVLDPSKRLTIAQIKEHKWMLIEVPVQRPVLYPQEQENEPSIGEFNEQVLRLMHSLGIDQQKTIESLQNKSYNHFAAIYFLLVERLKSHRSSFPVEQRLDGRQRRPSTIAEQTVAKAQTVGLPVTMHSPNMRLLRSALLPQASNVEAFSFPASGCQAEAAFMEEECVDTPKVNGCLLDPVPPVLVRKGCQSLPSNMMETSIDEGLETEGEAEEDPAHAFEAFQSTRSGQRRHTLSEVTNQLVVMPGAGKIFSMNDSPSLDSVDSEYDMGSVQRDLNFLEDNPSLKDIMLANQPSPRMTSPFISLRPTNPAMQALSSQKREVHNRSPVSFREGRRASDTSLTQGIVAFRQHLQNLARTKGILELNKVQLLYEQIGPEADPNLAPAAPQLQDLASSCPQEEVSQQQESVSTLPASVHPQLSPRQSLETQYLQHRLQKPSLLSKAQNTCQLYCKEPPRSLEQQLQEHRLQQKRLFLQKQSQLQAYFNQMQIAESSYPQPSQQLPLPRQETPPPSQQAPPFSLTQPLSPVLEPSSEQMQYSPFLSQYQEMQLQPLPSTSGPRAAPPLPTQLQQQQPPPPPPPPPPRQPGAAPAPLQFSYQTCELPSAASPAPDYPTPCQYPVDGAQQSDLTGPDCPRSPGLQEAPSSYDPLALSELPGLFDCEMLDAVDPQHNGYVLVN
Sequence of UniProt P17948 (whole entry, looked up): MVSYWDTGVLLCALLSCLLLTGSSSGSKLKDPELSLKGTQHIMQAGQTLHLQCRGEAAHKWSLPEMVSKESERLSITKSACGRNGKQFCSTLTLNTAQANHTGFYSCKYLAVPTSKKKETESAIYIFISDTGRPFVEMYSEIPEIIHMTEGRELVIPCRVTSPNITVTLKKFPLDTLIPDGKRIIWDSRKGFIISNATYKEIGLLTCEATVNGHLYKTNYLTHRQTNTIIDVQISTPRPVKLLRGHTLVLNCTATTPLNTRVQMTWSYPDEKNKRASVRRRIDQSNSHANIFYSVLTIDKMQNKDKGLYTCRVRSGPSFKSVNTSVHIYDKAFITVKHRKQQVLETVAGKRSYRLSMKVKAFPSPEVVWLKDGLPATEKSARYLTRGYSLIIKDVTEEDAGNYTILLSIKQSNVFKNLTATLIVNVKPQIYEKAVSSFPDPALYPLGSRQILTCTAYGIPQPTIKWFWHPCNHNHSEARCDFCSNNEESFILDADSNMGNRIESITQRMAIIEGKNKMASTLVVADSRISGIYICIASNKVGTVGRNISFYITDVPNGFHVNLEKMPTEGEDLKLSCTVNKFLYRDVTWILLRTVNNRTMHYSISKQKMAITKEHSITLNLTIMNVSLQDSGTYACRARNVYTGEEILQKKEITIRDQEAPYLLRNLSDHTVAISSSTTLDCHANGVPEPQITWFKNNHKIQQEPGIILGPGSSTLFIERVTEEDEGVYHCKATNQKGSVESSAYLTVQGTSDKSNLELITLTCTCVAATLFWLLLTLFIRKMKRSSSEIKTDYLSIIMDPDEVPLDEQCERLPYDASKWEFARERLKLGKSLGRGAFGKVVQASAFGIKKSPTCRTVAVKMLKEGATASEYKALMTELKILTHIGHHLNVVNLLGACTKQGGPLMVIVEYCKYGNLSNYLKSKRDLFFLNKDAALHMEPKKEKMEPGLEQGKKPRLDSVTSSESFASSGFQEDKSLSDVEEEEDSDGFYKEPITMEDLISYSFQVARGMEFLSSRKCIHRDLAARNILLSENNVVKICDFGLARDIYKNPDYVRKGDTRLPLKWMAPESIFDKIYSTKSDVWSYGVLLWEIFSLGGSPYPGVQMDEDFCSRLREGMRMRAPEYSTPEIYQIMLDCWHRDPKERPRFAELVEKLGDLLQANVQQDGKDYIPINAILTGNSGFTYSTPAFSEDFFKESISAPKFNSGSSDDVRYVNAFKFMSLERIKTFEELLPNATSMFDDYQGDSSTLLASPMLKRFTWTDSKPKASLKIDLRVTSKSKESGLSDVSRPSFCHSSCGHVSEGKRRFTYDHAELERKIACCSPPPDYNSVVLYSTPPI

Series 1
Cell line: mouse MPNST tumor cells
Technique: high-content nuclear imaging
Measured: cell number
Tested at: 10 µM
Time: 12 h
Notes: mean of 2 replicates
Relative to: plate mean
Reading: higher = more cells
For `CC(C)NCC(O)c1ccc(O)c(O)c1` (single isomer, unassigned; (-)), the nuclei count was 0.655 z-score.
`CN1CCc2cccc3c2[C@H]1Cc1ccc(O)c(O)c1-3` has a nuclei count of -4.61 z-score.
`CCOC(=O)[C@H](CCc1ccccc1)N[C@@H](C)C(=O)N1Cc2ccccc2C[C@H]1C(=O)O` gave a nuclei count of 2.66 z-score.
`COc1ccc(-n2c(SCc3nc(-c4ccc(C)cc4)no3)nnc2-c2ccncc2)cc1` has a nuclei count of 1.46 z-score.
`CN1CCCC1CCn1cc(C2=C(c3c[nH]c4ccccc34)C(=O)NC2=O)c2ccccc21` (stereo not shown) has a nuclei count of 2.85 z-score.
`CCOC(=O)[C@H](CCc1ccccc1)N[C@H]1CCc2ccccc2N(CC(=O)O)C1=O` has a nuclei count of 1.17 z-score and 0.803 z-score.
For `O=C(O)CN(CCN(CC(=O)O)CC(=O)O)CCN(CC(=O)O)CC(=O)O`, the nuclei count was 1.78 z-score.
The nuclei count of `CCCC(=O)C1(c2ccccc2)CCN(C(=O)[C@@H](Cc2ccc(OC)cc2)NC(=O)[C@@H](N)Cc2cncn2C)CC1` is reported as 4.11 z-score.
With `CC[C@H]1OC(=O)C[C@@H](O)[C@H](C)[C@@H](O[C@@H]2O[C@H](C)[C@@H](O[C@H]3C[C@@](C)(O)[C@@H](O)[C@H](C)O3)[C@H](N(C)C)[C@H]2O)[C@@H](CC=O)C[C@@H](C)C(=O)/C=C/C(C)=C/[C@@H]1CO[C@@H]1O[C@H](C)[C@@H](O)[C@@H](OC)[C@H]1OC` the nuclei count was -0.161 z-score.
With `O=C(Nc1ccc(N2CCC(C(=O)N3CCOCC3)CC2)cc1)c1cnc(Oc2ccccc2)nc1` the nuclei count was -0.204 z-score.

Series 2
Host: human
Sample: microsomes or S9
Tested at: 2 µM
Time: 0.5 h
For `Oc1c(-c2ccccc2Br)c(-n2cncn2)nc2ccccc12`, the remaining compound was greater than 99.9%.
With `COC(=O)c1ccc2c(=O)n(-c3ccccc3)c(N(Cc3ccco3)C3CCCC3)nc2c1` the remaining compound was 22.6%.
`Fc1cc(F)cc(-c2cc3cc(-c4ccccc4)[nH]c3cn2)c1` has a remaining compound of 79.7%.
For `COc1cc(=O)n(C)cc1C(=O)NCc1csc2ncnn12`, the remaining compound was 70.6%.
The remaining compound of `CNC(=O)C1CCCC1NC(=O)N1CCOC(C)(c2cnn(C)c2)C1` (stereo not shown) is reported as greater than 100%.
For `COc1cc(=O)n(-c2ccc(F)cc2)nc1C(=O)Nc1ccc(-c2nc3ccc(C)cc3s2)cc1`, the remaining compound was 65.2%.
`Cc1ccc(N2C(=O)c3[nH]nc(C)c3C2c2ccc(F)cc2)cc1` (stereo not shown) gave a remaining compound of greater than 99%.
`CC(O)CN(Cc1ccc(C(C)(C)C)s1)C1CCS(=O)(=O)CC1` (stereo not shown) gave a remaining compound of 34%.

Series 3
Compound: c1ccc2c(-c3ccncc3)c[nH]c2c1
Observed: enzyme activity
Mode: inhibitor
Tested at: 0.5 µM
Relative to: control
It gave 105% for remaining activity (Casein kinase I isoform delta (CSNK1D, Homo sapiens, UniProt P48730)).
Serine/threonine-protein kinase PAK 6 (PAK6, Homo sapiens, UniProt Q9NQU5) — remaining activity: 104%.
The remaining activity was 109% (Tyrosine-protein kinase JAK1 (JAK1, Homo sapiens, UniProt P23458)).
For Calcium/calmodulin-dependent protein kinase type 1 (CAMK1, Homo sapiens, UniProt Q14012): remaining activity read 108%.
For Serine/threonine-protein kinase PAK 1 (PAK1, Homo sapiens, UniProt Q13153): remaining activity read 99.1%.
Tyrosine-protein kinase Tec (TEC, Homo sapiens, UniProt P42680) — remaining activity: 123%.
It gave 78.9% for remaining activity (Muscle, skeletal receptor tyrosine-protein kinase (MUSK, Homo sapiens, UniProt O15146)).
For Ephrin type-A receptor 2 (EPHA2, Homo sapiens, UniProt P29317): remaining activity read 106%.
Dual specificity protein kinase CLK2 (CLK2, Homo sapiens, UniProt P49760) — remaining activity: 101%.
The remaining activity was 122% (Calcium/calmodulin-dependent protein kinase kinase 1 (CAMKK1, Homo sapiens, UniProt Q8N5S9)).
Vascular endothelial growth factor receptor 1 (FLT1, Homo sapiens, UniProt P17948) — remaining activity: 97.9%.
The remaining activity was 125% (Protein kinase C theta type (PRKCQ, Homo sapiens, UniProt Q04759)).
The remaining activity was 91% (Serine/threonine-protein kinase Sgk2 (SGK2, Homo sapiens, UniProt Q9HBY8)).
For Ephrin type-A receptor 6 (EPHA6, Homo sapiens, UniProt Q9UF33): remaining activity read 104%.
Ribosomal protein S6 kinase alpha-3 (RPS6KA3, Homo sapiens, UniProt P51812) — remaining activity: 97.4%.
Cyclin-dependent kinase 2, with cyclin E (CDK2, Homo sapiens, UniProt P24941) — remaining activity: 91.7%.
For Dual specificity protein kinase CLK1 (CLK1, Homo sapiens, UniProt P49759): remaining activity read 105%.
Mitogen-activated protein kinase kinase kinase 20 (MAP3K20, Homo sapiens, UniProt Q9NYL2) — remaining activity: 102%.
Casein kinase I isoform epsilon (CSNK1E, Homo sapiens, UniProt P49674) — remaining activity: 100%.
It gave 105% for remaining activity (Insulin-like growth factor 1 receptor (IGF1R, Homo sapiens, UniProt P08069)).
It gave 90.5% for remaining activity (Serine/threonine-protein kinase SIK2 (SIK2, Homo sapiens, UniProt Q9H0K1)).
It gave 108% for remaining activity (SRSF protein kinase 1 (SRPK1, Homo sapiens, UniProt Q96SB4)).

Series 4
SMILES: COc1cc(C(=O)OCCCN2CCCN(CCCOC(=O)c3cc(OC)c(OC)c(OC)c3)CC2)cc(OC)c1OC
Technique: von Frey test
For mechanical pain; mouse, STZ diabetic neuropathy; intravenous, 30 mg/kg, 24 h post-dose, first injection, day 8: “paw withdrawal threshold” read 0.15 g and 0.36 g and 0.29 g and 0.03 g.
It gave 0.29 g and 0.08 g and 0.13 g for “paw withdrawal threshold” (mechanical pain; mouse, STZ diabetic neuropathy; intravenous, 30 mg/kg, 24 h post-dose, third injection).
The “paw withdrawal threshold” was 0.23 g and 0.36 g and 0.13 g and 0.32 g (mouse, CFA inflammatory pain; subcutaneous, 10 mg/kg, 3 h post-dose, second injection, day 3).
For mechanical pain; mouse, STZ diabetic neuropathy; intravenous, 30 mg/kg, 3 h post-dose, first injection, day 8: “paw withdrawal threshold” read 0.02 g and 0.05 g and 0.23 g and 0.2 g.
For mouse, CFA inflammatory pain; subcutaneous, 10 mg/kg, 5 h post-dose, third injection, day 5: “paw withdrawal threshold” read 0.36 g and 0.13 g and 0.23 g.
It gave 0.23 g and 0.17 g and 0.32 g and 0.19 g for “paw withdrawal threshold” (mouse, CFA inflammatory pain; intravenous, dose not given, 24 h post-dose, first injection, day 1).
For mouse, CFA inflammatory pain; intraplantar, 10 µg, 5 h post-dose, day 3 after CFA: “paw withdrawal threshold” read 0.27 g and 0.44 g and 0.23 g and 0.17 g and 0.29 g.

Mixed results
For `CC(C)n1cnc(-c2ccc(F)cc2)c1-c1ncc(C(=O)Nc2ccc(N3CCN(C)CC3)cc2)[nH]1`, “patients with Fatigue” read 0% (human, idiopathic pulmonary fibrosis; 60 mg once daily, trial, treatment-emergent).
`CN(C)C(=O)Cn1cc(-c2nc([C@@](C)(c3ccc(-c4cnc(N)nc4)cc3)C3CC3)no2)cn1` gave an inhibition of -4.97% (5-hydroxytryptamine receptor 5A (HTR5A, Homo sapiens, UniProt P47898); ligand displacement; 10 µM).

A few entries again (series 1):
For `CC(C)NCC(O)c1ccc(O)c(O)c1` (single isomer, unassigned; (-)), the nuclei count was 0.655 z-score.
For `O=C(O)CN(CCN(CC(=O)O)CC(=O)O)CCN(CC(=O)O)CC(=O)O`, the nuclei count was 1.78 z-score.
The nuclei count of `CCCC(=O)C1(c2ccccc2)CCN(C(=O)[C@@H](Cc2ccc(OC)cc2)NC(=O)[C@@H](N)Cc2cncn2C)CC1` is reported as 4.11 z-score.
`CN1CCCC1CCn1cc(C2=C(c3c[nH]c4ccccc34)C(=O)NC2=O)c2ccccc21` (stereo not shown) has a nuclei count of 2.85 z-score.
With `CC[C@H]1OC(=O)C[C@@H](O)[C@H](C)[C@@H](O[C@@H]2O[C@H](C)[C@@H](O[C@H]3C[C@@](C)(O)[C@@H](O)[C@H](C)O3)[C@H](N(C)C)[C@H]2O)[C@@H](CC=O)C[C@@H](C)C(=O)/C=C/C(C)=C/[C@@H]1CO[C@@H]1O[C@H](C)[C@@H](O)[C@@H](OC)[C@H]1OC` the nuclei count was -0.161 z-score.
